Results gathered from unrelated publications.
A part holds a random share of what one study measured.

Study 1 — technique: protein binding microarray; molecule type: double-stranded DNA, one strand shown; matrix: in vitro; tested at: not given; relative to: not given; reading: higher = stronger binding
Target: Histone acetyltransferase KAT6A, both winged helices, GST fusion (KAT6A, Homo sapiens, UniProt Q92794, residues 1-181)
Setting: 8-mer, flanks averaged, mean of 2 arrays, mostly near background
Construct (chain): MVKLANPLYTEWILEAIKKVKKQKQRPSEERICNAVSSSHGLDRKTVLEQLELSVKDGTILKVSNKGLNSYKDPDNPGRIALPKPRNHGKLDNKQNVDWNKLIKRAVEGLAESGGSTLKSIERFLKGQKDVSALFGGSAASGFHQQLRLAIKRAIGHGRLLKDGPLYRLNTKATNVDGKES
Sequence | E-score
CATGCTCA | -0.0377
CCTATGTA | -0.189
ACGAAAGA | -0.0995
AGGAGATC | -0.151

Study 2 — technique: protein-binding microarray; molecule type: double-stranded DNA, one strand shown; matrix: in vitro; tested at: 2540 nM top; setting: 60-bp whole probe; added: salmon DNA 0.4 mg/ml; relative to: random background probes; reading: higher = stronger binding
Target: Interferon regulatory factor 3, full length, phosphomimetic (IRF3, Homo sapiens, UniProt Q14653, residues 1-427, S386D/S396D/S398D/S402D/T404D/S405D)
Chain of UniProt Q14653 (whole entry, unmodified, looked up): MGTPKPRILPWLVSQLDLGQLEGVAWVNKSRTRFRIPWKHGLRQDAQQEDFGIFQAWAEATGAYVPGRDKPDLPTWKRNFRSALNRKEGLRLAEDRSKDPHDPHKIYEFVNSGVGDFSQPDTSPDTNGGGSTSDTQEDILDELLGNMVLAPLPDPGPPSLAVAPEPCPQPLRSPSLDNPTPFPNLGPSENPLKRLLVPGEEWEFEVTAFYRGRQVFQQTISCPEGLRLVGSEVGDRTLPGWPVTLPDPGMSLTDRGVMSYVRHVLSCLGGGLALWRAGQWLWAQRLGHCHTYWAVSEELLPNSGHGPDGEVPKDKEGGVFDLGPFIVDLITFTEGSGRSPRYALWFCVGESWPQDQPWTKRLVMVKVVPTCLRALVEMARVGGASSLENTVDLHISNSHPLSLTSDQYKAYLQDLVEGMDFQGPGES
Sequence | fitted relative affinity [z-score]
GCCTAGCACTCATCATTATTGTCTCCCACTGTGCTAGTCTTGATTCGCTTGACGCTGCTG | 0.375
GCCTAGCACTCAGGTCTCGGACTGGGTTAGTGCTAGGTCTTGATTCGCTTGACGCTGCTG | 0.388
GCCTAGCACTCAAAATTCTAATTAGAACTGTGCTAGGTCTTGATTCGCTTGACGCTGCTG | 0.243

Study 3 — technique: universal PBM; molecule type: double-stranded DNA, one strand shown; matrix: in vitro; tested at: 600 nM; reading: higher = stronger binding
Target: Sal-like protein 4, full length isoform A (SALL4, Homo sapiens, UniProt Q9UJQ4, residues 1-1053)
Chain of UniProt Q9UJQ4 (whole entry, looked up): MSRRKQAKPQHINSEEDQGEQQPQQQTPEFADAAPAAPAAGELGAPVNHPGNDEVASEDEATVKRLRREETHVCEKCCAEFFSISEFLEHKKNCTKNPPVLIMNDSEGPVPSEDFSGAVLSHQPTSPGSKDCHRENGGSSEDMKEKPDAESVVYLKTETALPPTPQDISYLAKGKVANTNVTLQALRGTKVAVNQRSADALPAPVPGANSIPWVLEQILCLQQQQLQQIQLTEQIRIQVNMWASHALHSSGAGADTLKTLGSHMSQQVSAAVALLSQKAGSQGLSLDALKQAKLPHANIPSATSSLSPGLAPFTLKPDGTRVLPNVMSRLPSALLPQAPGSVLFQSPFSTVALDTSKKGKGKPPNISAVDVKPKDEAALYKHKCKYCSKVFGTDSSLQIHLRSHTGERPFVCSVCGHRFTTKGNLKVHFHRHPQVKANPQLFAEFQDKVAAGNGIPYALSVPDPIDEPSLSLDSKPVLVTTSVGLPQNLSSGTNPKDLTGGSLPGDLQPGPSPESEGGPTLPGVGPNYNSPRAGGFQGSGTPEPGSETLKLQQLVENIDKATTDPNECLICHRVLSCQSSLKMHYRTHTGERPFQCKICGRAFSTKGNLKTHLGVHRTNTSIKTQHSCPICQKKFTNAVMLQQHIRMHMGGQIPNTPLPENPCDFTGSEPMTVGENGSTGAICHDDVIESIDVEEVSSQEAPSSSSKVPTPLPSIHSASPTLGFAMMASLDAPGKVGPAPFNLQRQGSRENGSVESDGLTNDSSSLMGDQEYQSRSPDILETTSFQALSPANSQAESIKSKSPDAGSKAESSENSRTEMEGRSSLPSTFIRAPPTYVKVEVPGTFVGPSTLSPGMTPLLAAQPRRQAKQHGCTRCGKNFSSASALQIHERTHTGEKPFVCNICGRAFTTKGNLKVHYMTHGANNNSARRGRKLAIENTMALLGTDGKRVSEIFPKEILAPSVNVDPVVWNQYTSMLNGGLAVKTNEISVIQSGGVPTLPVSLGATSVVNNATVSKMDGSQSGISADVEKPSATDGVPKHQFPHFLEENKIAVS
Setting: 8-mer, flanks averaged, mean of replicates
Sequence | E-score
CAGGTTTA | 0.0536
TATTCGCA | 0.27
CGGAACAA | 0.043
CGCCCGAA | -0.213

Other studies, line by line
Molecule | target | test | test system | conditions | scale | measurement | result
PhoQ, residues 284 288 289 292 302 303 SSTMSV | PhoP, residues 12 14 15 18 19 SFCSL (Escherichia coli, UniProt P23836) | Sort-seq, measured: YFP reporter | E. coli | PhoQ-PhoP variant library, added: 10 µM Mg2+ | relative to: high Mg2+ state, higher = stronger signaling | fold induction | 21.2

For quick reference, copied from above (study 2):
Sequence | fitted relative affinity [z-score]
GCCTAGCACTCAGGTCTCGGACTGGGTTAGTGCTAGGTCTTGATTCGCTTGACGCTGCTG | 0.388
